# Literature values as cited in several papers.
# Each numbered part shows a few of the values that one paper quotes. ± gives the spread as reported.
# Chain of UniProt P14618 (whole entry, looked up): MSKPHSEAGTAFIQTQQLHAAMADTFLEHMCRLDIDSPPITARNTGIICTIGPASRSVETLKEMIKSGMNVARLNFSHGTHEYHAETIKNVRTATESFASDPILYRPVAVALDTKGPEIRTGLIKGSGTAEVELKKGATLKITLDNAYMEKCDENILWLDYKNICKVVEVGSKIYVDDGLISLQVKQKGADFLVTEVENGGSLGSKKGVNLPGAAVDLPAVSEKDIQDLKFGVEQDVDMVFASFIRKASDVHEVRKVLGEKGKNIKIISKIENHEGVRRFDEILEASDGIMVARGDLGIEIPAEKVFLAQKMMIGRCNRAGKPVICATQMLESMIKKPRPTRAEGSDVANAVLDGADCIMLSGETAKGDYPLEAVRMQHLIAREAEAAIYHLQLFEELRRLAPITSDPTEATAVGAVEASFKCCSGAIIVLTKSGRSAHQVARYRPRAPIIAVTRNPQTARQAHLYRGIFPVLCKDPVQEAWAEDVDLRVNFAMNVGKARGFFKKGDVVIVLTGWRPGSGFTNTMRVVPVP
# Chain of UniProt P31941 (whole entry, looked up): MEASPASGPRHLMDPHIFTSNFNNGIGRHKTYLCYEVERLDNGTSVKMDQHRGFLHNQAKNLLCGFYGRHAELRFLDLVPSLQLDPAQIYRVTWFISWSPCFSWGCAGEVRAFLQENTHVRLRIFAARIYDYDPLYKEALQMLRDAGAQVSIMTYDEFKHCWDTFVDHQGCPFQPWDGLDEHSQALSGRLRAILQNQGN

# Sample 1 — organism: Cryptosporidium parvum; method: high-throughput screen; tested at: concentration not given
SMILES,activity
CNS(=O)(=O)Cc1ccc2[nH]cc(CCN(C)C)c2c1,inactive
CCc1cccc2c3c([nH]c12)C(CC)(CC(=O)O)OCC3 (centres unmarked),inactive
CN(C)CCCN1c2ccccc2CCc2ccccc21,inactive
C[C@]12C=CC(=O)C=C1CC[C@@H]1[C@@H]2[C@@H](O)C[C@@]2(C)[C@H]1CC[C@]2(O)C(=O)CO,inactive
C[C@]12CCC(=O)C=C1CC[C@@H]1[C@@H]2CC[C@@]2(C)[C@H]1CC[C@]2(O)C(=O)CO,inactive
O=C(O)COCCN1CCN(C(c2ccccc2)c2ccc(Cl)cc2)CC1 (centres unmarked),inactive
CC(N/C(=N\C#N)Nc1ccncc1)C(C)(C)C.O (centres unmarked),inactive
C[C@]12CC[C@@H]3c4ccc(OS(=O)(=O)O)cc4CC[C@H]3[C@@H]1CCC2=O,inactive
CCN(CC)CCOC(=O)c1ccc(N)cc1,inactive
NC12CC3CC(CC(C3)C1)C2,inactive
CC(C)(C)NCC(O)COc1cccc2c1CC(O)C(O)C2 (centres unmarked),inactive
CC(C)NCC(O)c1ccc(O)c(O)c1.Cl (centres unmarked),inactive
C[C@]12CCC(=O)C=C1CC[C@@H]1[C@@H]2[C@@H](O)C[C@@]2(C)[C@H]1CC[C@]2(O)C(=O)CO,inactive
CN1CCC(=C2c3ccccc3CCc3sccc32)CC1.O=C(O)/C=C\C(=O)O,inactive
COc1ccc(OC)c(C(O)CNC(=O)CN)c1 (centres unmarked),inactive
Nc1nc(=O)[nH]cc1F,inactive
C[C@@H]1CN(CCCn2c3ccccc3c3ccccc32)C[C@H](C)N1,inactive
O=C1c2c(O)cc(O)cc2OC(c2ccc(O)c(O)c2)C1O (centres unmarked),inactive
CN(CCOc1ccc(CC2SC(=O)NC2=O)cc1)c1ccccn1.Cl (centres unmarked),inactive
CCC(=O)O[C@]1(C(=O)SCF)[C@H](C)C[C@H]2[C@@H]3C[C@H](F)C4=CC(=O)C=C[C@]4(C)[C@@]3(F)[C@@H](O)C[C@@]21C,inactive
CN(CCOc1ccc(NS(C)(=O)=O)cc1)CCc1ccc(NS(C)(=O)=O)cc1,inactive
C=CC1=C(C(=O)O)N2C(=O)[C@@H](NC(=O)/C(=N\OCC(=O)O)c3csc(N)n3)[C@H]2SC1,inactive
CCOc1cc(CC(=O)N[C@@H](CC(C)C)c2ccccc2N2CCCCC2)ccc1C(=O)O,inactive
O=C1NC(=O)N(C2CC(O)C(CO)O2)CC1F (centres unmarked),inactive
C[C@@H](c1ncncc1F)[C@](O)(Cn1cncn1)c1ccc(F)cc1F,inactive

# Sample 2 — target: dopamine D2 receptor; effect on: binding
SMILES,Ki
CN1CCN2c3ncccc3Cc3ccccc3C2C1 (centres unmarked),5.45 µM
CN(C)CCC=C1c2ccccc2CCc2ccccc21,0.266 µM
CCN(CC)CCNC(=O)c1cc(Cl)c(N)cc1OC,0.053 µM

# Further values, each from its own experiment
Compound,tested on,test,system,setting,scale,quantity,value
Cn1nc(C(F)(F)F)cc1C(=O)Nc1ccc(S(=O)(=O)N2CCCCC2)cc1,measles virus,viral yield reduction,,,,EC50,0.014 ± 0.02 µM
CCCCCCCC(=O)c1c(O)cc(O)cc1CC(=O)OCC,,,,,,logP,7.33
Cc1nc2ccc(F)cc2n1-c1nc(N)c(F)c(Nc2ccc(C(F)(F)F)cc2)n1,,,patients with advanced solid tumours,"oral capsule, 10.4 mg/kg",,terminal half-life,19.9 h
CN(C)C(=O)Cn1cc(-c2nc(C3(c4ccc(-c5cnc(N)nc5)cc4)CC3)no2)cn1,ALOX5AP,biochemical activity,,,,IC50,0.67 µM
O=C(O)C1=CC(=C(c2ccc(O)c(C(=O)O)c2)c2ccc(O)c(C(=O)O)c2)C=CC1=O,"DNA dC->dU-editing enzyme APOBEC-3A (Homo sapiens, UniProt P31941)",,,,,IC50,0.03 µM
CN[C@@H](C)C(=O)N[C@H]1CN(C(=O)CC(C)C)CC[C@H]2CC[C@@H](C(=O)NC(c3ccccc3)c3ccccc3)N2C1=O,XIAP,,,,,Ki,0.0664 µM
CCCCCCCCCCCCCCCC(=O)N[C@@H](CCC(=O)NCCCC[C@@H]1NC(=O)[C@H]([C@@H](C)CC)NC(=O)[C@@H](NC(=O)[C@@H]2CCCN2C(=O)[C@H](Cc2ccccc2)NC(=O)[C@H](Cc2c[nH]cn2)NC(=O)[C@@H](NC(=O)[C@H](CC(=O)O)NC(=O)CC(C)C)[C@@H](C)O)CSSC[C@@H](C(=O)N[C@@H](CCCCN)C(N)=O)NC(=O)CNC(=O)[C@H](CCCCN)NC(=O)[C@H](CO)NC(=O)[C@H](CCCNC(=N)N)NC(=O)[C@@H]2CCCN2C(=O)[C@H](CCC(=O)O)NC(=O)[C@H](Cc2ccccc2)NC1=O)C(=O)O,,,"cynomolgus monkey, plasma","subcutaneous, 0.3 mg/kg, 8 h post-dose",,Cmax,172 ± 31 nM
O=C1OC2(c3ccc(O)cc3Oc3cc(O)ccc32)c2ccccc21,,,NaOH solution,,,fluorescence quantum yield,0.92
COc1cc(O)c2c(c1O)-c1nccc(C)c1C2=O,Plasmodium falciparum,,3D7,,,IC50,9.9 µM
CC(=O)c1c(C)c2cnc(Nc3ccc(N4CCNCC4)cn3)nc2n(C2CCCC2)c1=O,human neutrophils,,,"concentration not given, with: fMLF",,MAPK phosphorylation,no effect
CCOC(=O)c1cc2cc(-c3cc(C(=O)NCc4ccc(C(=O)O)cc4)nn3C)ccc2[nH]1,MMP13,cellular activity,,,,IC50,0.031 µM
CN(C)C/C=C/C(=O)Nc1cc2c(Nc3ccc(F)c(Cl)c3)ncnc2cc1O[C@H]1CCOC1,,,,"in vitro, with: glutathione",,half-life,~0.5 h
N=C(N)c1ccc2[nH]c(-c3cccc(C4(O)CCCCC4)n3)cc2c1,hepsin,inhibitor,,,,inhibitory potency,0.1 µM
COc1cc(O)c(CC=C(C)C)c(O)c1C(=O)/C=C/c1ccc(O)cc1,,,human,180 mg,,half-life,18 h
Cc1ncc(CO)c(C(=O)O)c1O,,,cynomolgus monkey,"dose not given, with: probenecid",reference: without probenecid over with,renal clearance decrease,~3 fold
COc1ccc2c(O[C@@H]3C[C@H]4C(=O)N[C@]5(C(=O)O)CC5/C=C\CCCCC[C@H](NC(=O)OC5CCCC5)C(=O)N4C3)cc(-c3csc(NC(=O)C(C)C)n3)nc2c1C (some centres unmarked),HCV NS3,"viral replication, cell-based","hepatitis C virus, genotype 1b",,,EC50,< 0.0018 µM
CC(=O)OC[C@H]1O[C@H]2OC(C)CCCCCC/C=C\CCCCCCCC(=O)O[C@H]3[C@H](O)[C@@H](O)[C@H](O[C@@H]2[C@@H](O)[C@@H]1O)O[C@@H]3COC(C)=O (some centres unmarked),MDA-MB-231 cells,cell growth,,monolayer culture,,IC50,15 to 20 µg/mL
O=C(c1ccc2c(c1)OCCO2)N1CCN(S(=O)(=O)c2c(F)cccc2F)CC1,"Pyruvate kinase PKM (PKM, Homo sapiens, UniProt P14618)",activator,,concentration not given,,activation,inactive
Oc1cc2c(cc1CN1CCN(c3cccc(Cl)c3)CC1)oc1ccccc12,NR4A1 (Nur77),"agonist, cell-based",,,,EC50,1.4 ± 0.6 µM
CCOc1ccc(-c2nc3ccc(-c4nc5ccc(N6CCN(C)CC6)cc5[nH]4)cc3[nH]2)cc1,,,PBS,"2 µM, with: 30 µM hairpin DNA",,fluorescence quantum yield,0.823 ± 0.004
NC(=O)c1[nH]cnc1N,CYP1A2,in vitro based,,,,CYP1A2 contribution to metabolism,~70%
O=C1N[C@H](c2cncc(C#Cc3ccccc3)c2)[C@@H](c2ccccc2Cl)O1,mGluR5,"binding, radioligand displacement",,,,Ki,0.0006 µM

# Excerpt of the above (sample 1):
SMILES,activity
CCc1cccc2c3c([nH]c12)C(CC)(CC(=O)O)OCC3 (centres unmarked),inactive
CNS(=O)(=O)Cc1ccc2[nH]cc(CCN(C)C)c2c1,inactive
CC(C)(C)NCC(O)COc1cccc2c1CC(O)C(O)C2 (centres unmarked),inactive
O=C1c2c(O)cc(O)cc2OC(c2ccc(O)c(O)c2)C1O (centres unmarked),inactive
C[C@]12C=CC(=O)C=C1CC[C@@H]1[C@@H]2[C@@H](O)C[C@@]2(C)[C@H]1CC[C@]2(O)C(=O)CO,inactive
C[C@@H]1CN(CCCn2c3ccccc3c3ccccc32)C[C@H](C)N1,inactive
CC(C)NCC(O)c1ccc(O)c(O)c1.Cl (centres unmarked),inactive
